Measurements of several laboratories.
Each line is one published result; not all experiments were run side by side. “And” joins repeats or separate records; there may be more than shown. ± gives the spread as reported.

Molecule | test | test system | setting | how to read | measurement | result
CC(C)C[C@H](NC(=O)[C@H](CC(C)C)NC(=O)[C@H](CCCCN)NC(=O)[C@H](C)NC(=O)[C@H](CC(C)C)NC(=O)[C@H](CCCCN)NC(=O)[C@H](CCCCN)NC(=O)[C@H](CC(C)C)NC(=O)[C@H](C)NC(=O)[C@H](CCCCN)NC(=O)[C@H](CCCCN)NC(=O)[C@H](Cc1ccc(O)cc1)NC(=O)[C@@H](N)CCCCN)C(N)=O | carboxyfluorescein release | EYPG vesicles | 10 µg/mL, 250 s, pH 7.4, 25 °C | reference: Triton X-100 | leakage | 60%
NNc1ncc(S(=O)(=O)NC(=S)Nc2ccccc2)c(=O)[nH]1 | oral glucose tolerance test | HFD/STZ type 2 diabetic rat | oral, 10 mg/kg, together with: glucose 1 g/kg |  | glucose AUC | 601 ± 71.5 mg·min/dL
NC[C@H]1O[C@H](O[C@H]2[C@H](O)[C@@H](O[C@H]3O[C@H](CO)[C@@H](O)[C@H](N)[C@H]3O)[C@H](N)C[C@@H]2N)[C@H](N)C[C@@H]1O | [14C]-phenylalanine incorporation, inhibitor, (UUU)12-directed cell-free translation | M. smegmatis 70S ribosomes, Leishmania/Trypanosoma hybrid decoding site | 60 min, 37 °C |  | IC50 | > 500000 nM
O=C(CCCCCCC(=O)Nc1ccccc1)NO |  | human, liver metastasis biopsy | oral, 1700 mg once daily | reference: β-actin | thymidylate synthase mRNA level | 0.13 and 0.05
CS(=O)(=O)c1ccc(C2=C(c3ccccc3)C(=O)OC2)cc1 | paw withdrawal latency | mouse, capsaicin-induced mechanical allodynia | subcutaneous, dose not given, together with: punctate stimulus 0.5 g force |  | antiallodynic effect | inactive
CC[C@H](C)[C@H](NC(=O)CNC(=O)[C@H](Cc1c[nH]c2ccccc12)NC(=O)CNC(C)=O)C(=O)N[C@@H](CCCCN)C(N)=O | DSC | SOPC/cholesterol 6/4 bilayers | 5 mol%, pH 7.40 |  | transition enthalpy | 0.5 kcal/mol
TYIATGALL | IFN-γ release, ELISPOT | peptide, splenocytes, BALB/c mouse immunised |  |  | EC50 | < 0.001 nM
C[C@@H]1O[C@@H](O[C@H]2C[C@@H](O)[C@]3(CO)[C@H]4[C@H](O)C[C@]5(C)[C@@H](C6COC(=O)C6)CC[C@]5(O)[C@@H]4CC[C@]3(O)C2)[C@H](O)[C@H](O)[C@H]1O (some centres unmarked) | Na/K pump current, inhibitor, whole-cell patch clamp | Cavia porcellus | pH 7.4, 36 °C, high-affinity component |  | Kd | 750 nM
c1ccc2c(c1)cc1ccc3cccc4ccc2c1c34 | inducer | female rat, liver | oral, 10 mg, 24 h, sesame oil vehicle |  | menadione reductase activity | 56 enzyme units
corticotropin-releasing factor (human/rat) | measured: CREB phospho-Ser133 | hippocampal pyramidal neurons, Sprague-Dawley rat pups | 40 nM, 15 min |  | responding neurons | ~85%
CC(C)C(=O)OC[C@H]1O[C@@](C#N)(c2ccc3c(N)ncnn23)[C@H](O)[C@@H]1O | qRT-PCR | BALB/c mice, MHV-A59 infected, liver | intragastric, 10 and 50 mg/kg twice daily, 3 days post infection | reference: vehicle | viral RNA level | decreased
CC(C)C[C@H](NC(=O)[C@H](Cc1ccc(O)cc1)NC(=O)CNC(=O)[C@H](CC(C)C)NC(=O)[C@@H]1CCCN1C(=O)CCCc1cn(CC(=O)NC(COCc2cn(CCO[C@H]3O[C@H](CO)[C@@H](O)[C@H](O)[C@@H]3O)nn2)(COCc2cn(CCO[C@H]3O[C@H](CO)[C@@H](O)[C@H](O)[C@@H]3O)nn2)COCc2cn(CCO[C@H]3O[C@H](CO)[C@@H](O)[C@H](O)[C@@H]3O)nn2)nn1)C(=O)NCC(=O)NCCCC[C@H](NC(=O)[C@H](CCCCN)NC(=O)[C@H](CC(=O)O)NC(=O)[C@@H]1CCCN1C(=O)[C@H](CCCNC(=N)N)NC(=O)[C@H](Cc1c[nH]cn1)NC(=O)[C@H](Cc1c[nH]c2ccccc12)NC(=O)[C@H](CO)NC(=O)[C@H](C)NC(=O)CNC(=O)[C@@H](N)CC(C)C)C(=O)N[C@@H](CC(C)C)C(=O)N[C@H](C(=O)N[C@@H](Cc1ccccc1)C(=O)N[C@@H](Cc1ccccc1)C(=O)N[C@@H](C)C(=O)N[C@@H](CCC(=O)O)C(=O)N[C@@H](CS)C(=O)NCC(=O)O)C(C)C |  | C57BL/6 mouse, MB49-Luc tumour | intravenous, 100 µL, five doses, 500 µM, 18 days |  | tumour volume | 591 ± 197 mm³
CC1=C(C(=O)Nc2ccccc2)C(c2ccccc2Cl)NC(=S)N1 (centres unmarked) | carotid artery cannulation | male Wistar rats, anaesthetised | 0.3 mL, 3 h |  | mean arterial pressure | 20.9 ± 0.64 mm Hg
CC[C@H](C)[C@H](NC(=O)[C@@H](N)Cc1ccccc1)C(=O)N1CCC[C@H]1C(=O)N[C@@H](CCC(N)=O)C(=O)N[C@@H](Cc1ccc(O)cc1)C(=O)N[C@@H](CC(C)C)C(=O)N[C@@H](CO)C(=O)N[C@@H](C)C(=O)N[C@H](C(=O)O)C(C)C |  | PBMC, human, HSV-1 seropositive, HLA-A*0201+ | 10 µg/mL, 72 h |  | IFN-γ+ CD8+ T cells | ≤ 3.7%

For quick reference, copied from above:
Molecule | test | test system | setting | how to read | measurement | result
CC[C@H](C)[C@H](NC(=O)CNC(=O)[C@H](Cc1c[nH]c2ccccc12)NC(=O)CNC(C)=O)C(=O)N[C@@H](CCCCN)C(N)=O | DSC | SOPC/cholesterol 6/4 bilayers | 5 mol%, pH 7.40 |  | transition enthalpy | 0.5 kcal/mol
